Published values of several laboratories.
A part holds a random share of what one study measured.

Block 1
Target: Ras GTPase-activating protein-binding protein 1, C-terminal RGG region (G3BP1, Homo sapiens, UniProt Q13283)
UniProt Q13283, sequence (whole entry, looked up): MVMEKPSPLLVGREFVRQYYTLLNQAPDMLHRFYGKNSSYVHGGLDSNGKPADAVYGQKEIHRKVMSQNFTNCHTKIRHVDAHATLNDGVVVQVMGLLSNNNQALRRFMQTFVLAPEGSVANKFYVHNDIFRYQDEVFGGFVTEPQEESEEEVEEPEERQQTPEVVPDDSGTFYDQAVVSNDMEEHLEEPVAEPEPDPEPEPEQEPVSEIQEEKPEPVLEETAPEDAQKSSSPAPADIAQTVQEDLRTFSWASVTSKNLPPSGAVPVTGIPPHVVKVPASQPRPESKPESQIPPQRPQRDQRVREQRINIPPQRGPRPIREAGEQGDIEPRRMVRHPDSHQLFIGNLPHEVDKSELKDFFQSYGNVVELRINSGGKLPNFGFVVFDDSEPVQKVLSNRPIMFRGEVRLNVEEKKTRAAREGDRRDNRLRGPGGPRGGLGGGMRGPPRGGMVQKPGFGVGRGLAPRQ
Technique: RNA Bind-n-Seq
Form: RNA
Matrix: in vitro
Tested at: 1 µM
Setting: whole 134-nt RNA, ends assumed
With: 150 mM KCl
Baseline: input library
Direction: higher = stronger binding
All sequences stand within: GGGAGUUCUACAGUCCGACGAUC … UGGAAUUCUCGGGUGUCAAGG
Oligonucleotide	log2 enrichment
CUCAAGUCCUGUGCUACACAUCGUAUGUACCGAAUCGGUUGGUUGGGUUGGGGAAAGUAUUAUGUUACGCCGUUCGGAUCUGCACUUCCA	-0.96
UGGCCCUGGUGGCAUGCGGGGAGGAAGAGGUGGCCUCAUGGAUCGUGGUGGUCCCGGUGGAAGGUUCAGAGGUGGCCGUGGUGGAGACAG	1.88
GUCCUGUGCUACACAUCGUAUGUACCGAAUCAAAUUUUUAAAUUUAAACCCCCCCAAAAAAGUAUUAUGUUACGCCGUUCGGAUCUGCAC	-0.619
UGGGAGGUGGAUUUUGUUUAUUUUUUUAGCUCAUUUCCAGGGCUGGGAAUUUUUUUUUAAUAUGUGUCAUGAAUAAAGUUGUUUUUGAAA	2.82
AAGUCCUGUGCUACACAUCGUAUGUACCGAAUCGGUUUUGGGGUUUUGGGUUUUGGAAAGUAUUAUGUUACGCCGUUCGGAUCUGCACUU	-1.15
AAGUCCUGUGCUACACAUCGUAUGUACCGAAUCGGGGAGGGGUUUGGGGAAAGGGGAAAGUAUUAUGUUACGCCGUUCGGAUCUGCACUU	3.23
UUCAGUAAAAUGGCAGAAGAGAAACUGACCCACAAAAUGGAAGCUAAUAAAGAGAACCGAGAGGCACAAAUGGCUGCCAAACUGGAACGU	-1.95

Block 2
Substance: PhoQ, residues 284 288 289 292 302 303 TGYLSA
Technique: Sort-seq
Measured: YFP reporter
Matrix: E. coli
Setting: PhoQ-PhoP variant library
With: 10 µM Mg2+
Baseline: high Mg2+ state
Direction: higher = stronger signaling
target	fold induction
PhoP, residues 12 14 15 18 19 SFCSL (Escherichia coli, UniProt P23836)	4.85
PhoP, residues 12 14 15 18 19 AYFRS (Escherichia coli, UniProt P23836)	14.2
PhoP, residues 12 14 15 18 19 HHYTI (Escherichia coli, UniProt P23836)	2.94

Block 3
Target: Histone acetyltransferase KAT6A, winged helix 1, GST fusion (KAT6A, Homo sapiens, UniProt Q92794, residues 1-85)
Technique: protein binding microarray
Form: double-stranded DNA, one strand shown
Matrix: in vitro
Tested at: not given
Setting: 8-mer, flanks averaged, mean of 2 arrays, mostly near background
Baseline: not given
Direction: higher = stronger binding
Target sequence (chain): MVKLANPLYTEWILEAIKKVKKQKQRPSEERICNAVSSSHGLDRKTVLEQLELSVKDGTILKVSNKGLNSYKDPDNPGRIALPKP
Oligonucleotide	E-score
GACATCCA	-0.101
AGTAACGG	0.154
GTAGCCAC	-0.119
AAACGTTT	-0.123
GTGGCCAC	-0.188
AGCTCGGG	-0.00104
ATAAATCG	-0.0167
ACGGAAGT	0.266
ACAGCTGT	-0.172
ATAAGCGC	0.275
CGGGATAC	0.246

Block 4
Target: Sal-like protein 4, full length isoform A (SALL4, Homo sapiens, UniProt Q9UJQ4, residues 1-1053)
UniProt Q9UJQ4, sequence (whole entry, looked up): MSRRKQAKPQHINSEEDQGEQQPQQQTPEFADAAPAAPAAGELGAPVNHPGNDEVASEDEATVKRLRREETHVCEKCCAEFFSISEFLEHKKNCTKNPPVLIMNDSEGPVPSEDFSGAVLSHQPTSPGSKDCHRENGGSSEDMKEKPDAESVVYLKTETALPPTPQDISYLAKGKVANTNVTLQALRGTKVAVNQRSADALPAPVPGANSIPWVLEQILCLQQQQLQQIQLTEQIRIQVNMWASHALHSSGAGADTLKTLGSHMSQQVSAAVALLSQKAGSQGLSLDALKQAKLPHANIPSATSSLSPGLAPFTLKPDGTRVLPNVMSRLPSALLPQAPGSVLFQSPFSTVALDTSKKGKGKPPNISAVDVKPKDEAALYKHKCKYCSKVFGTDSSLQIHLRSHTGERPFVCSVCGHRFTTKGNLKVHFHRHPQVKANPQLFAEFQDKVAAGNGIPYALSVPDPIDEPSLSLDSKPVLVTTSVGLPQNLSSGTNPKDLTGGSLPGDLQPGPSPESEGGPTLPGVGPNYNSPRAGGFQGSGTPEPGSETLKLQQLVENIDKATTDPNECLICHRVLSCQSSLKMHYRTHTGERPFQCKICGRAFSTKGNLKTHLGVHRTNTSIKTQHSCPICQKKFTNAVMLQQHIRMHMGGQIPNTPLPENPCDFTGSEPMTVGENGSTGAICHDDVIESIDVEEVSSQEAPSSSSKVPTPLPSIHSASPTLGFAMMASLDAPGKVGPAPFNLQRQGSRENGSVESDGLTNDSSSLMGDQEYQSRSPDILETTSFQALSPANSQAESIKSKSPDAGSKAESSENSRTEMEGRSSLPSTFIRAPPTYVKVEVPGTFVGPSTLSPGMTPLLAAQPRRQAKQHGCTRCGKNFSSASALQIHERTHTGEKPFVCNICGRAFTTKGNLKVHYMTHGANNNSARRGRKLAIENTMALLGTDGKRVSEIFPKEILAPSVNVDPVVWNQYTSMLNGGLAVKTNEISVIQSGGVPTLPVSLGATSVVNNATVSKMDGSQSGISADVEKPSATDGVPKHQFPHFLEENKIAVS
Technique: universal PBM
Form: double-stranded DNA, one strand shown
Matrix: in vitro
Tested at: 600 nM
Setting: 8-mer, flanks averaged, mean of replicates
Direction: higher = stronger binding
Oligonucleotide	E-score
AATATAAA	0.431
CACGATTC	-0.0205
ACCCGTTG	-0.311
CCTCCCAA	-0.115
CAGTGGTA	-0.00855
CTGCATCC	-0.231
AGCATCAT	0.186
AATTAGGG	0.00836

Some of these lines once more (block 4):
Oligonucleotide	E-score
CAGTGGTA	-0.00855
